Measured values pooled from the literature.
Numbered parts are unrelated; each lists some results of a single study.

Sample 1 — technique: aptamer microarray, sandwich; molecule type: DNA with 2'F-ANA; matrix: in vitro; tested at: 200 nM; with: Cy3 exosite-II aptamer, 400 nM; direction: higher = stronger binding; quantity: mean fluorescence intensity; sequence: GGTTGGTGTGGTTGG
Target: Prothrombin, mature alpha-thrombin (F2, Homo sapiens, UniProt P00734)
Setting: whole 15-mer aptamer, many near background
2'F-ANA at 2 3 4 5 8 9 10 11 13 15: 57.4 a.u.
2'F-ANA at 6 9 10 11 13: 130 a.u.
2'F-ANA at 2 5 10 11 12: 49.4 a.u.
2'F-ANA at 2 3 5 6 9 10 15: 53.5 a.u.
2'F-ANA at 6 8 10 11 14: 98.3 a.u.
2'F-ANA at 3 5 6 11 13 14 15: 56.9 a.u.
2'F-ANA at 1 2 3 4 5 6 9 11: 54 a.u.
2'F-ANA at 1 4 5 6 10 12 13 14 15: 47.6 a.u.
2'F-ANA at 1 2 3 6 8 9 12 14 15: 147 a.u.
2'F-ANA at 2 3 4 7 10 11 13 14: 171 a.u.
2'F-ANA at 4 6 8 9 11 12 13: 278 a.u.
2'F-ANA at 5 6 8 9 10 12 15: 49.9 a.u.
2'F-ANA at 3 4 5 6 7 9: 98.3 a.u.
2'F-ANA at 2 3 5 6 7 8 10 11 12 13 14 15: 53.3 a.u.
2'F-ANA at 6 9 10 12: 213 a.u.
2'F-ANA at 2 5 6 8 13 14 15: 66.3 a.u.

Sample 2 — technique: RNA Bind-n-Seq; molecule type: RNA; matrix: in vitro; tested at: 200 nM; setting: whole 134-nt RNA, ends assumed; with: 150 mM LiCl; relative to: input library; direction: higher = stronger binding; quantity: log2 enrichment; each molecule: 7-deaza-guanosine replaces G
Target: Fragile X messenger ribonucleoprotein 1, C-terminal low-complexity region (Fmr1, Mus musculus, UniProt P35922)
Shared flanks, not repeated: GGGAGUUCUACAGUCCGACGAUC … UGGAAUUCUCGGGUGUCAAGG
UGGGAGGUGGAUUUUGUUUAUUUUUUUAGCUCAUUUCCAGGGGUGGGAAUUUUUAUUUAAUAUGUGUCAUGAAUAAAGUUGUUUUUGAAA: -0.17
UAACUUUAGAGGAGGAUCUGAUGGAUAUGGCAGUGGACGUGGAUUUGGGGAUGGCUAUAAUGGGUAUGGAGCAGGACCUGGAGGUGGCAA: 0.435
UUACUUUAGAGGAGGAUCUGAUGGAUAUGGCAGUGGACGUGGAUUUGGGGAUGGCUAUAAUGGGUAUGGAGGAGGACCUGGAGGUGGCAA: 0.488
CACAGACAACACGCACCCACACAGACACGGAGGGAAGGGGUUGGGAUGGGGACAGGGUGCACAGCAGGGCGGGGUAGGACCCCAGCCCCU: 0.354
CCUCAAGUCCUGUGCUACACAUCGUAUGUACCGAAUCGGUGGGGUGGGUGGGGAAAGUAUUAUGUUACGCCGUUCGGAUCUGCACUUCCA: -0.0388
AGUCCUGUGCUACACAUCGUAUGUACCGAAUCGGGAAAAAGGGUUUUUGGGUUUGGGAAAGUAUUAUGUUACGCCGUUCGGAUCUGCACU: -2.59
UAACUUUAGAGGAGGAUCUGAUGGCUAUGGCAGUGGACGUGGAUUUGGGGAUGGCUAUAAUGGGUAUGGAGGAGGACCUGGAGGUGGCAA: 0.0402
CCUCUGGACGAGACCAGCCAGAUGAGCGACCUCCCGGUGAAGGUGAUCCACGUGGAGAGUGGGAAGAUCCUCACAGGCACAGAUGCCCCC: 1.01

Sample 3 — technique: RNA Bind-n-Seq; molecule type: RNA; matrix: in vitro; tested at: 365 nM; relative to: no-protein control; direction: higher = stronger binding; quantity: RBNS enrichment (R)
Target: RNA binding protein fox-1 homolog 2, RRM domain, GST-SBP tag (RBFOX2, Homo sapiens, UniProt O43251-10, residues 100-194)
Setting: natural RNA segment, single round, ends assumed
Shared flanks, not repeated: GGGAGUUCUACAGUCCGACGAUC … UGGAAUUCUCGGGUGCCAA
Construct (chain): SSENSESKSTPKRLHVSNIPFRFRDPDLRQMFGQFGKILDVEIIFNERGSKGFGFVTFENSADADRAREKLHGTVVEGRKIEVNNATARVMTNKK
CAAGCACCGAGCAAACCCUAGGGUGUGCCUCACCUGCGAUGCUGUGGGCAAACACUUCUCAGCUGGUCCAUUUUUACAACGAUUGAAAAUCUAGAAGCCUUCUCAUGUUG: 0.288
CUGCUCCAGCCACACUGUGAGGCUGUGGAGAACUGAAACUGUUUGACAGUGGUGCCCUAUGGAAGGGCACCUAGUUGGCUAGGGGUGUAGGCUGAGCUGAGAGGGGUGUU: 0.83
UGGAGUAUACACUCUGACUUCUACCUAUGCUUCCUGGAUCCACCACCAUGUGGCAGAGCUCCAGCCUCGAGUUGUCCCCCAGACUCAGGAGUCCCAGCCGGAUGGCCACC: 0.292
UCAUGCUGCAUUUACUGUUUACAUUUGUUUUAUUGUACAUAGGUUUGUAAACAUUAUUGCCUGAGAUAUUUGUAUAUAACUUGGGCUUUGUAGCUUUUAUUUAUUCAGAA: 0.56
UUAGCACUCUCAAAUUUCAGGUUUGUAAAACACAGUUUUUGUUUUGUGUUCUGGCAAAGUGAUCUCAACAUGUAAGUAGUUGCAGUAAAACACAGGGGCAAAGGAAGACA: 0.792
CUUAAGCCUUUCUCCAAGUCUGGAUUCCAGAAAUGUUCCCCACAUCAAGGCUCUGACACCCCAGCCCUCCAAACCUGAACUCUGAGGCCUAGGCCUCUUUAAGUCAAGAC: 0.24
CAGUCCCAGCCAAGCCCCCAAUCCCAGCGGAGACUGUGCCCUGCUCAGAGCUCCCAAGCCUUCCCCCACCACCUCACUCAAGUGCCCCUGAAAUCCCUGCCAGACGGCUC: 0.627
GAAUGAACUGUAGAAAUGUUUUAAGGACCCAGAAACCCCAUAUGUCUCAUUCCAUGACUAUAGGUGAGAGAAUUCUUUCCUAAGAGGGUUUGAUACCAAUAGGGGAAAAU: 0.675

Single results of other studies — technique: cross-linking MS; matrix: cell fractions
CC2D2B (Homo sapiens, UniProt Q6DHV5) — cross-linked residues (ACSBG1 (Homo sapiens, UniProt Q96GR2); with: DMTMM): K209 to D31
SF3A3 (Homo sapiens, UniProt Q12874) — cross-linked residues (SF3A1 (Homo sapiens, UniProt Q15459); with: DSSO): K92 to K188
FBL (Homo sapiens, UniProt P22087) — cross-linked residues (NOL7 (Homo sapiens, UniProt Q9UMY1); with: DSSO): K318 to K178
NOP14 (Homo sapiens, UniProt P78316) — cross-linked residues (RCL1 (Homo sapiens, UniProt Q9Y2P8); with: DSSO): K72 to K57

Repeated from above (sample 3):
GAAUGAACUGUAGAAAUGUUUUAAGGACCCAGAAACCCCAUAUGUCUCAUUCCAUGACUAUAGGUGAGAGAAUUCUUUCCUAAGAGGGUUUGAUACCAAUAGGGGAAAAU: 0.675
CUGCUCCAGCCACACUGUGAGGCUGUGGAGAACUGAAACUGUUUGACAGUGGUGCCCUAUGGAAGGGCACCUAGUUGGCUAGGGGUGUAGGCUGAGCUGAGAGGGGUGUU: 0.83
